Assay results gathered from unrelated publications.
Protocols differ between the studies behind these lines. Values joined by “and” are separate records of one study, mostly repeats; a detail may differ. ± gives the spread as reported.
Sequence of UniProt P14616 (whole entry, looked up): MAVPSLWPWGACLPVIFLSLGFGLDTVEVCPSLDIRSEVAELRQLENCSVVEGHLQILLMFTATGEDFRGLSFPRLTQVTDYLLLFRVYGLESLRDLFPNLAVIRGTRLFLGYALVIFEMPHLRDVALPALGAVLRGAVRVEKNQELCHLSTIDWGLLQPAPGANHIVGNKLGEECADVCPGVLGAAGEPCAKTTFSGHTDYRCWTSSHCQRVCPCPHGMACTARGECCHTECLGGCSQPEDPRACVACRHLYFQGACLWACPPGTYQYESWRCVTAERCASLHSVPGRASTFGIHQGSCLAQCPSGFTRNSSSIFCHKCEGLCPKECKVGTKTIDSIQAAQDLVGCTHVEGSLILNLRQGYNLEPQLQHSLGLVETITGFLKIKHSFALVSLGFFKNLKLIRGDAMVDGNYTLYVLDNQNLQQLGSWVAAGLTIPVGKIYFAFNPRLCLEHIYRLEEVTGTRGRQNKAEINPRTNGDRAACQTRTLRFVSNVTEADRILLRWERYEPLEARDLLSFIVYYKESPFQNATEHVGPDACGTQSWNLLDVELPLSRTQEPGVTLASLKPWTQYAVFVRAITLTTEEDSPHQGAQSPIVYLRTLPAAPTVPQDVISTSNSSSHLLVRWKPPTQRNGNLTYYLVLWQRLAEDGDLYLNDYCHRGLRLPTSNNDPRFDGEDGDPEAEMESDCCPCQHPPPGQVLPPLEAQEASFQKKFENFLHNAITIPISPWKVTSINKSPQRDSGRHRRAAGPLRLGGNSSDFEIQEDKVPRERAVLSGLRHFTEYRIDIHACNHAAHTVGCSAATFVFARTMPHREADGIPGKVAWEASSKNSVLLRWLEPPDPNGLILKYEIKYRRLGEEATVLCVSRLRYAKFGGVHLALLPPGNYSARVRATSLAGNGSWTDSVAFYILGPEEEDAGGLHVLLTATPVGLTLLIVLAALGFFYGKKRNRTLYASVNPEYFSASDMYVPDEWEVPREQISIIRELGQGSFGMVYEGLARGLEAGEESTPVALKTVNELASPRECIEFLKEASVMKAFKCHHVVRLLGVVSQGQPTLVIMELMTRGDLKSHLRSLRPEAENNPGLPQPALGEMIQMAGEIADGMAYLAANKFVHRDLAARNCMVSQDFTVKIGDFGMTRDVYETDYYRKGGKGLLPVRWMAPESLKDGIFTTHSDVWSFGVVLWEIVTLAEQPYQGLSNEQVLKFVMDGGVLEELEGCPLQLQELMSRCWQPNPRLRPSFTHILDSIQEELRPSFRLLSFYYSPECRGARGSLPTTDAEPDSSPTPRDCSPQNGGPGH

SMILES	target or system	assay	test system	conditions	scale	endpoint	result
CC(=O)OC1CCC2(OC1)OC(=CC#CC#CCO)C(OC(=O)CC(C)C)C2O (stereo not shown)	RAW264.7	MTT	DMEM with 10% FBS	50 µM, 18 h, added: LPS 1 µg/mL	reference: DMSO	viability	96.8 ± 9.1%
COC1OC(C)C(OS(=O)(=O)O)C(OC2OC(C)C(OS(=O)(=O)O)C(OC3OC(C)C(OS(=O)(=O)O)C(OC4OC(C)C(OS(=O)(=O)O)C(OC5OC(C)C(OS(=O)(=O)O)C(OC6OC(C)C(OS(=O)(=O)O)C(OC7OC(C)C(OS(=O)(=O)O)C(OC8OC(C)C(OS(=O)(=O)O)C(OS(=O)(=O)O)C8OS(=O)(=O)O)C7OS(=O)(=O)O)C6OS(=O)(=O)O)C5OS(=O)(=O)O)C4OS(=O)(=O)O)C3OS(=O)(=O)O)C2OS(=O)(=O)O)C1OS(=O)(=O)O (stereo not shown)	RAW264.7	CCK-8	–	concentration not given, 24 h, low concentration	reference: untreated cells	viability	96.2% and 107% and 125%
CC(C)=CCc1c(O)c(CC=C(C)C)c2occ(-c3ccc(O)c(O)c3)c(=O)c2c1O	A549	cell growth or viability, MTT	–	100 µg/mL	–	viability	114%
COC1OC(C)C(OS(=O)(=O)O)C(OC2OC(C)C(OS(=O)(=O)O)C(OC3OC(C)C(OS(=O)(=O)O)C(OC4OC(C)C(OS(=O)(=O)O)C(OC5OC(C)C(OS(=O)(=O)O)C(OC6OC(C)C(OS(=O)(=O)O)C(OC7OC(C)C(OS(=O)(=O)O)C(OC8OC(C)C(OS(=O)(=O)O)C(OC9OC(C)C(OS(=O)(=O)O)C(OC%10OC(C)C(OS(=O)(=O)O)C(OS(=O)(=O)O)C%10OS(=O)(=O)O)C9OS(=O)(=O)O)C8OS(=O)(=O)O)C7OS(=O)(=O)O)C6OS(=O)(=O)O)C5OS(=O)(=O)O)C4OS(=O)(=O)O)C3OS(=O)(=O)O)C2OS(=O)(=O)O)C1OS(=O)(=O)O (stereo not shown)	RAW264.7	CCK-8	–	concentration not given, 24 h, medium concentration	reference: untreated cells	viability	120% and 106% and 118%
Cc1ncsc1-c1ccc(C(C)NC(=O)C2CC(O)CN2C(=O)C(NC(=O)CCCCCCCCCCN2CCCC(Nc3ncc(Cl)c(Nc4ccccc4S(=O)(=O)C(C)C)n3)C2)C(C)(C)C)cc1 (stereo not shown)	22Rv1	RNA-seq, refers to: PWWP2B mRNA	–	concentration not given	reference: DMSO	log2 fold change	-1.03
CNS(=O)(=O)Nc1nccc(Cc2c(C)c3ccc(Oc4ncccc4F)cc3oc2=O)c1F	HPAF-II	cell viability, CellTiter-Glo	–	7 days	–	IC50	0.0115 µM
COc1ccc(Cn2cc(CO[C@@H]3O[C@H]4[C@H](OC[C@H]4O)[C@H]3N=[N+]=[N-])nn2)cc1	Huh-7	cytotoxicity, CellTiter-Glo	–	up to 30 µM, 72 h	–	viability	not toxic
COC1OC(C)C(OC2OC(C)C(OS(=O)(=O)O)C(OC3OC(C)C(OC4OC(C)C(OS(=O)(=O)O)C(OC5OC(C)C(OC6OC(C)C(OS(=O)(=O)O)C(OC7OC(C)C(OS(=O)(=O)O)C(OS(=O)(=O)O)C7OS(=O)(=O)O)C6OS(=O)(=O)O)C(OS(=O)(=O)O)C5OS(=O)(=O)O)C4OS(=O)(=O)O)C(OS(=O)(=O)O)C3OS(=O)(=O)O)C2OS(=O)(=O)O)C(OS(=O)(=O)O)C1OS(=O)(=O)O (stereo not shown)	NIH 3T3	CCK-8	–	concentration not given, 24 h, medium concentration	reference: untreated cells	viability	89.5% and 105% and 100%
CCOC(=O)C1CC(CC)C2C=CC3CCN(C(=O)C4CCC5C=CC6(CCCN6C(=O)C(Cc6ccccc6Cl)NC(C)=O)C(=O)N54)C3C(=O)N12 (stereo not shown)	MDA-MB-231	–	–	180 µM, 24 h	–	viability	not toxic
CC[C@H](C)[C@@H](C(=O)N[C@@H](Cc1ccc(O)cc1)C(=O)N1CCC[C@H]1C(=O)N[C@@H](Cc1ccccc1)C(=O)O)n1cc(C(Cc2ccc(O)cc2)NC(=O)[C@@H](NC(=O)[C@H](CCCNC(=N)N)NC(=O)[C@@H](N)CC(=O)O)C(C)C)nn1 (stereo partly shown)	Caco-2	cell growth or viability, MTT	–	25 µM, 48 h	–	viability	93%
CN1CCCNC(=O)c2cccc(c2)C(=O)NCCCN(C)CCCNc2cccc3c2C(=O)c2cccc(c2C3=O)NCCC1	NHEK	CCK-8	–	0.15 µM, 48 h	reference: untreated	viability	77.9%
CC(=O)OC[C@H]1O[C@@H]([Se]c2ccc([N+](=O)[O-])cc2[N+](=O)[O-])[C@H](OC(C)=O)[C@@H](OC(C)=O)[C@@H]1OC(C)=O	THP-1 macrophages (PMA-differentiated)	WST-1	–	50 µM, 24 h	–	viability	2.3 ± 0.5%
C=C(NC(=O)c1csc(-c2nc3c(cc2O)-c2nc(cs2)C(=O)NC(C(C)O)C(=O)NC(=C(C)OC)c2nc(cs2)C(=O)NC2c4nc(cs4)C(=O)NC(COC(=O)c4c5c6c(cccc6n4O)COC(=O)C(OC4CC(C)(O)C(N(C)C)C(C)O4)C2OC5)c2nc-3cs2)n1)C(N)=O (stereo not shown)	–	–	Sprague-Dawley rat, both sexes, plasma	intravenous infusion, 6 mg/kg single dose	–	clearance	2.94 L/h/kg
Cc1nn(-c2cccc(N)c2)c(=O)c2cnc(Nc3ccc(N4CCNCC4)cc3)nc12	INSRR (Homo sapiens, UniProt P14616)	SelectScreen kinase	–	–	–	IC50	> 10 µM
COC1CN([C@H]2CC[C@H]([C@@]3(C)Oc4c(Cl)cc(C(=O)NCc5c(SC)cc(C)[nH]c5=O)c(C)c4O3)CC2)C1	–	RNA-seq, refers to: STAC mouse homolog	mouse, HT-1376 xenograft, whole blood	dose not given	reference: vehicle	log2 fold change	1.88
CC(=O)OC[C@H]1O[C@@H]([Se]SC[C@H]2O[C@@H]3OC(C)(C)O[C@@H]3[C@H]3OC(C)(C)O[C@H]32)[C@H](OC(C)=O)[C@@H](OC(C)=O)[C@@H]1OC(C)=O	THP-1 macrophages (PMA-differentiated)	WST-1	–	50 µM, 24 h	–	viability	0.9 ± 0.9%

Excerpt of the above:
SMILES	target or system	assay	test system	conditions	scale	endpoint	result
CC(=O)OC1CCC2(OC1)OC(=CC#CC#CCO)C(OC(=O)CC(C)C)C2O (stereo not shown)	RAW264.7	MTT	DMEM with 10% FBS	50 µM, 18 h, added: LPS 1 µg/mL	reference: DMSO	viability	96.8 ± 9.1%
COC1OC(C)C(OS(=O)(=O)O)C(OC2OC(C)C(OS(=O)(=O)O)C(OC3OC(C)C(OS(=O)(=O)O)C(OC4OC(C)C(OS(=O)(=O)O)C(OC5OC(C)C(OS(=O)(=O)O)C(OC6OC(C)C(OS(=O)(=O)O)C(OC7OC(C)C(OS(=O)(=O)O)C(OC8OC(C)C(OS(=O)(=O)O)C(OS(=O)(=O)O)C8OS(=O)(=O)O)C7OS(=O)(=O)O)C6OS(=O)(=O)O)C5OS(=O)(=O)O)C4OS(=O)(=O)O)C3OS(=O)(=O)O)C2OS(=O)(=O)O)C1OS(=O)(=O)O (stereo not shown)	RAW264.7	CCK-8	–	concentration not given, 24 h, low concentration	reference: untreated cells	viability	96.2% and 107% and 125%
